Experimental data pooled from the literature.
Each numbered part is a random draw from the data of one study; scales do not carry over between parts. Substitutions count along the parent as printed.

Study 1 — technique: RNA Bind-n-Seq; molecule type: RNA; sample: in vitro; tested at: 200 nM; setting: whole 134-nt RNA, ends assumed; together with: 150 mM KCl; reference: input library; direction: higher = stronger binding
Target: Fragile X messenger ribonucleoprotein 1, C-terminal low-complexity region (Fmr1, Mus musculus, UniProt P35922)
Constant ends, left off below: GGGAGUUCUACAGUCCGACGAUC … UGGAAUUCUCGGGUGUCAAGG
`CUGUGCUACACAUCGUAUGUACCGAAUCGGAAAAAAAGGGGAAAAAAAGGGGAAAAAAAGGAAAGUAUUAUGUUACGCCGUUCGGAUCUG` gave a log2 enrichment of -0.778.
`UGGGAGGUGGAUUUUGUUUAUUUUUUUAGCUCAUUUCCAGGGGUAGGAAUUUUUUUUUAAUAUGUGUCAUGAAUAAAGUUGUUUUUGAAA` has a log2 enrichment of 0.00134.
For `UAACUUUAGAGGAGGAUCUGAUGGAUAUGGCAGUGGACGUGGAUUUGGGGAUGGGUAUAAUGGGUAUGGAGGAGGACCUGGAGGUGGCAA`, the log2 enrichment was 0.21.
`GUCCUGUGCUACACAUCGUAUGUACCGAAUCGGGGAAAAAGGGGUGGGGAAAAAGGGGAAAGUAUUAUGUUACGCCGUUCGGAUCUGCAC` has a log2 enrichment of 0.345.
`GCAGGAAGUAAAAACAAAUGGAAAAAAUUCGGAUAGUGGCAGGGGUGGGGGUUGCUAAGGAAAGGGUGGGAUGGGAGUGGGUAAAGAGUU` has a log2 enrichment of 0.327.
For `UCCUCAAGUCCUGUGCUACACAUCGUAUGUACCGAAUCGGAGGUUUGGUGGAAAGUAUUAUGUUACGCCGUUCGGAUCUGCACUUCCAGC`, the log2 enrichment was -0.615.
`CAAGUCCUGUGCUACACAUCGUAUGUACCGAAUCGGGGUUUGGUUUGGGGUUUGGGAAAGUAUUAUGUUACGCCGUUCGGAUCUGCACUU` gave a log2 enrichment of 0.607.
`UCCCCAGGGCCUGGCCUACUCAAUCUCUCCCACCUCAUCCUCUGGCAUGGACGCAGUCAGGGAGUCUGCUCCAAGCAGACACUGGUGGUC` gave a log2 enrichment of -1.09.
For `CCUCAAGUCCUGUGCUACACAUCGUAUGUACCGAAUCGGGGAGGAGGGGAGGAAAGUAUUAUGUUACGCCGUUCGGAUCUGCACUUCCAG`, the log2 enrichment was 0.621.
For `UGUUGGAGGGACGAUGGUCCGCUCCGGGCAGGACCCUUACGCCCGCAACAAGUUCAACCAGGUGGAGAGUGAUAAGCUUCGAAUGGACAG`, the log2 enrichment was -1.7.

Study 2 — target: CCNE2, cyclin fold, Cln2 fusion (human); technique: yeast growth competition, sequencing; sample: yeast; setting: weak parent motif; reference: not given; direction: higher = stronger binding
Starting sequence: SGO1 docking peptide (human); PLAKRALKYTDEK; partner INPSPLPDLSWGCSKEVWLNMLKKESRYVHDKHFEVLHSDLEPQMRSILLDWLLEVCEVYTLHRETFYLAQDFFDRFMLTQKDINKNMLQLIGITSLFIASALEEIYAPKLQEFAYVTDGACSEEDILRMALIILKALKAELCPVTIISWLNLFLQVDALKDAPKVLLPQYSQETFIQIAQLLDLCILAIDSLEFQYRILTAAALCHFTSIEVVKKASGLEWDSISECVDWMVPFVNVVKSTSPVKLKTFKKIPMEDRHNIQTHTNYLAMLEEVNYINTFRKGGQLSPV
`E12A` — result for “normalised enrichment score”: 0.422.
For `L2A`, “normalised enrichment score” read 0.259.
Under “normalised enrichment score”, `L7A` is recorded as 0.0901.
Under “normalised enrichment score”, `Y9A` is recorded as 0.298.
`D11A` — result for “normalised enrichment score”: 0.472.
`P1A` — result for “normalised enrichment score”: 0.388.

Study 3 — technique: RNAcompete; molecule type: RNA; sample: in vitro; tested at: 20 nM; setting: 7-mer, probes averaged, single round; reference: mean of 7-mers; direction: higher = stronger binding
Target: PABPC1L2, full length, GST fusion (mouse, UniProt A0ABA7IW68)
Target sequence (chain): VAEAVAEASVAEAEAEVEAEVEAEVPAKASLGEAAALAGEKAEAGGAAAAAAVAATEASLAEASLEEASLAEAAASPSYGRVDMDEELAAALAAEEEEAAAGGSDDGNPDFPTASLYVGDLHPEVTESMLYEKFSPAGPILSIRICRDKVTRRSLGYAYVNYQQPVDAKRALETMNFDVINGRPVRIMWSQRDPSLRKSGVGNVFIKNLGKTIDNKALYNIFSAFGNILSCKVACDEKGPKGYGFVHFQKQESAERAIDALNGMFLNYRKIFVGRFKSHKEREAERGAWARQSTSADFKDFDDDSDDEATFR
For `CCCUGGC`, the 7-mer Z-score was -0.382.
`UGUGGAA` gave a 7-mer Z-score of 0.236.
`CAAAGAC` gave a 7-mer Z-score of 0.537.
With `UGAUAAC` the 7-mer Z-score was -0.0881.
With `GUGCGCA` the 7-mer Z-score was -0.00652.
The 7-mer Z-score of `GCGCCCA` is reported as -0.374.
With `UUCCCAA` the 7-mer Z-score was -0.148.
`GCUUAUU` has a 7-mer Z-score of -0.237.
`CUCGGGU` has a 7-mer Z-score of -0.0645.
`GCACACG` has a 7-mer Z-score of -0.0808.
`CUGAUUU` has a 7-mer Z-score of -0.117.
`AACUAGA` gave a 7-mer Z-score of 0.138.
`CCAUAUU` has a 7-mer Z-score of -0.318.
`CCGCGGG` gave a 7-mer Z-score of -0.324.
`GUAAUAG` has a 7-mer Z-score of -0.0699.
With `CUAGUAG` the 7-mer Z-score was -0.195.
With `GCCCCAC` the 7-mer Z-score was -0.316.
`AGCUUAC` has a 7-mer Z-score of -0.0863.
With `CUAGAGU` the 7-mer Z-score was -0.396.
`GUUCAGA` has a 7-mer Z-score of -0.204.
The 7-mer Z-score of `CAUAACG` is reported as 0.0714.
`CCCUGCU` has a 7-mer Z-score of -0.44.
With `CUGAAAU` the 7-mer Z-score was -0.0772.

Study 4 — technique: RNA Bind-n-Seq; molecule type: RNA; sample: in vitro; tested at: 365 nM; reference: no-protein control; direction: higher = stronger binding
Target: RNA binding protein fox-1 homolog 2, RRM domain, GST-SBP tag (RBFOX2, Homo sapiens, UniProt O43251-10, residues 100-194)
Setting: natural RNA segment, single round, ends assumed
Constant ends, left off below: GGGAGUUCUACAGUCCGACGAUC … UGGAAUUCUCGGGUGCCAA
Target sequence (chain): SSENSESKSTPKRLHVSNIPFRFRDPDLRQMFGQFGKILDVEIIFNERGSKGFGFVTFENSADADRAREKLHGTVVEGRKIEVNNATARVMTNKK
Under “RBNS enrichment (R)”, `GCAGUGUGAGAGAAAGCCAGGACCCGACAUGCUGUCCGUUAACGCUACGUCUGCUGUAGUUCCAUUUUGUAUGUUGUGUAAAGCGAGCAUCGAUCGAAGCAAAAGGUGAU` is recorded as 2.47.
`AUGGGACACCCAACACUUUUUCCAUUUCUUCAGAGGGAAACUCAGAUGUCCAAACUAAUUUUAACAAACGCAUUAAGAGGUUUAUUUGGGUACAUGGCCCGCAGUGGCUU` — result for “RBNS enrichment (R)”: 0.349.
`UUGGCCCCACCCAAGCCCAAACUUACCUUCUCUGGGGGAAAAAAAAGGAAAGAUGGUAAUAGUGAGAGAUUCGGGGGGCACCCCCUCCCCAUUGGUUUCUGGCCCUUUCA`: “RBNS enrichment (R)” 0.384.
For `UCAGUUUCCAAAUGCAAUACUCUAUUCUGGUUUUUCCUGAGUGAGCCUGAUUUUGUUCCUGUUUUUCAUCUACGAGGGUAAAAGCAUACCCCGGGAAAUCCCUGUGGCCA`, “RBNS enrichment (R)” read 0.325.
For `GCCAGAAAGGGGCAUGAGGGCUCUUGCGAGACUGAAGUGCUAUCUUCUCUGGACUAGAGAGAAGAGGGAGAGGACUGGAAGGGAUCACCAAAUCUCAAAGCAAUGAGAAG`, “RBNS enrichment (R)” read 0.71.
`ACUGCCUGGAGGGCAGGGAGUGGGAGCCAAUGAACAGGCAUGCAAGUGAGAGCUUCCUGAGCUUUCUCCUGUCGGUUUGGUCUGUUUUGCCUUCACCCAUAAGCCCCUCG` — result for “RBNS enrichment (R)”: 0.788.
`CUGAGGCAGUUGACGGGGCAGUCAGAUUUUUAAAGUUUUGUACAAAGUUUUCCUUUGUAAUCACUCCCAUUUUUACUUAACAACCAACUUGUUGUGGCUCUUAUUUCUGA` — result for “RBNS enrichment (R)”: 0.806.
`GUCUGGGAUCCAGGGCAAUGUGAAUUUUCUUUUUAUUUGGGAGAUUGUUCACGGAAAACAGAUCUUCUUCUCUCUUGUCCACCUAUUAAUUGUUUACAAUAUUUGUACAU`: “RBNS enrichment (R)” 0.403.
`GUCCUUUUGAAGACAGCUAGCUAAAUUUGCCUGCCAAAAGAUGUCAAUUAUUGAAUUGAUACCUGUUUCUAGCAAAUAUAUGACAUGGCCUAGUGUCUUAAUUUUUGUCC`: “RBNS enrichment (R)” 4.42.
Under “RBNS enrichment (R)”, `UGUCCUGAGCCUCUUGUUACCUUGUUACUUCAGCCUAGAGGACUGAGAAUGGAGAGCCCGAGAAGUGAAUCUUCCUUGUCCUGUAUAAUAAAUUAUUAAGUUGUGUUGGU` is recorded as 0.911.
For `GACGCCACCGCUGCUCUUCUUGCGUUUUUGUAAUCUUUUCAUUUUUGAAGCUUCCAAUUUGCUUGCUGCUGCUGCUGCCUGGGGGCCAGGACAGAGGUAGUGGCGGCCCC`, “RBNS enrichment (R)” read 0.769.
For `UACAAUUGCCCCUUUUUAUAUAUACACCUCCACAAGACAUGCGUAUUAAACAGAUUGUCUCAUCGUUGCAUCUAUUUUCCAUGUAUUCAUCAAGAGACCAUUUUAUGACA`, “RBNS enrichment (R)” read 0.689.

Study 5 — technique: universal PBM; molecule type: double-stranded DNA, one strand shown; sample: in vitro; tested at: 600 nM; direction: higher = stronger binding
Target: Sal-like protein 4, full length isoform A (SALL4, Homo sapiens, UniProt Q9UJQ4, residues 1-1053)
Sequence of UniProt Q9UJQ4 (whole entry, looked up): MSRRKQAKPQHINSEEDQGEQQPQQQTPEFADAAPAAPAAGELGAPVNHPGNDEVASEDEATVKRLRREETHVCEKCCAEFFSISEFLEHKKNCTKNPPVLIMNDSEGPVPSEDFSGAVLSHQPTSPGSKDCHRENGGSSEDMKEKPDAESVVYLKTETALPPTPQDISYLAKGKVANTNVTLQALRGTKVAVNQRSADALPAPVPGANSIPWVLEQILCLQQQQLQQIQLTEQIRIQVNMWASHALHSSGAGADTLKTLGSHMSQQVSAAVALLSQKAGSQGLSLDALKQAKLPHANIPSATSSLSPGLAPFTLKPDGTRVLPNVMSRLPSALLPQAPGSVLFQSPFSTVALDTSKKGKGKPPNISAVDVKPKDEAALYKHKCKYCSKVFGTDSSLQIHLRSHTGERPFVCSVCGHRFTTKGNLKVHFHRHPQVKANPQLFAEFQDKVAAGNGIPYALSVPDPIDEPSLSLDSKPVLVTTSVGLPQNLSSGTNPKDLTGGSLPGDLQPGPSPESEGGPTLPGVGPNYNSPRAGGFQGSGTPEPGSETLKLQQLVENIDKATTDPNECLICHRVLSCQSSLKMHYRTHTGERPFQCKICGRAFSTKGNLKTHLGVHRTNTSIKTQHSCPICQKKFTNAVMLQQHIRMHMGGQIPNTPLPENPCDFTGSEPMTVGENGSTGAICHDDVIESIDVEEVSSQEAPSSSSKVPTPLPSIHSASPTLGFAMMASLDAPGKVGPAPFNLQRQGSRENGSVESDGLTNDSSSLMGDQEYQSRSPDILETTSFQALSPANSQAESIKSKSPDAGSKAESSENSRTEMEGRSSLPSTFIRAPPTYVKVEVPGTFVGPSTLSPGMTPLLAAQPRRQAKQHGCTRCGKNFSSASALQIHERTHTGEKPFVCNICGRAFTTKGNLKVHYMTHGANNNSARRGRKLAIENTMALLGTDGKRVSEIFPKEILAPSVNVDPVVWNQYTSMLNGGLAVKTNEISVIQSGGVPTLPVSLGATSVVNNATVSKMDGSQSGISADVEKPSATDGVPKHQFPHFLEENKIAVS
Setting: 8-mer, flanks averaged, mean of replicates
`ATCTGGAA` has an E-score of 0.147.
`GCTGGCAA` has an E-score of -0.121.
For `AAAAACCT`, the E-score was 0.167.
The E-score of `CAGCCGAG` is reported as -0.228.
`ATCGCCTA` has an E-score of -0.124.
The E-score of `ATCCATCC` is reported as 0.107.
The E-score of `CGCCCCAG` is reported as -0.326.
`AAAAGCTA` gave an E-score of 0.143.
`CCGCGCTA` gave an E-score of -0.0876.
For `CGAAGAAA`, the E-score was 0.0894.
`ATTTAGAG` has an E-score of 0.13.
`CCGATTGA` has an E-score of -0.109.
`CCGCTAAG` gave an E-score of -0.157.
The E-score of `TGCCGGCA` is reported as -0.0894.
With `GCCCATAC` the E-score was -0.0372.
`AAGCACCG` gave an E-score of -0.239.
The E-score of `GTTCGTTA` is reported as 0.148.
For `ACGAATTC`, the E-score was 0.136.
`AGACACCT` has an E-score of -0.066.
With `AGATCTAA` the E-score was 0.0485.
The E-score of `AACAGATA` is reported as 0.145.
`CTCATCAA` gave an E-score of 0.124.
For `CATTCTTC`, the E-score was 0.0698.
`ACCTCGCT` has an E-score of -0.0582.
With `TGGCTACA` the E-score was 0.149.
